# Assay results gathered from unrelated publications.
# Matrix: plasma
# Route: oral
Compound,species,dose,notes,endpoint,result
CCCCCN1C[C@H](O)[C@@H](O)[C@H](O)[C@@H]1CO,human,300 mg,"single dose, fasted, healthy volunteers",AUC(0-t),10800 ng·h/mL
CS(=O)(=O)n1cc2c(n1)CN([C@H]1CO[C@H](c3cc(F)ccc3F)[C@@H](N)C1)C2,male human,12.5 mg,"single dose, fasted, healthy volunteers",AUC(0-t),10.6 µM·h
CCOc1ccc(Cc2cc([C@@H]3S[C@H](CO)[C@@H](O)[C@H](O)[C@H]3O)c(OC)cc2C)cc1,human,1 mg,"single dose, fasted, healthy volunteers",AUC(0-t),323 ng·h/mL
O=C(c1nc2n(n1)[C@H](c1ccccc1)C[C@@H]2F)C1CC1,human,150 mg,"single dose, fasted, healthy volunteers",AUC(0-t),18000 ng·h/mL
O=C(O)COC[C@H]1CC[C@H](COC(=O)N(c2ccccc2)c2ccc(Cl)cc2)CC1,human,20 µg,"multiple doses, twice daily, steady state",AUC,14.3 ng·h/mL
C[C@@H]1CCC[C@H](n2cnc(-c3cc(Cl)ccc3-n3cc(Cl)nn3)cc2=O)c2cc(ccn2)-c2c(cnn2C(F)F)NC1=O,human,500 mg,"single dose, fed, healthy volunteers",AUC(0-inf),44800 ng·h/mL
Nc1ccc(-c2nc([C@H]3CCc4cc(-c5cc(Cl)ccc5-n5cnnn5)cc(=O)n43)c(F)[nH]2)c(F)n1,human,1 mg,"single dose, fasted",AUC,89 ng·h/mL
CS(=O)(=O)n1cc2c(n1)CN([C@H]1CO[C@H](c3cc(F)ccc3F)[C@@H](N)C1)C2,male human,50 mg,"single dose, fasted",AUC(0-inf),50.5 µM·h
COc1cccc(-c2ccc(NC(=O)C3=C(C(=O)O)CCC3)c(F)c2)c1,male human,40 mg,"single dose, fasted, healthy volunteers",AUC(0-inf),192000 ng·h/mL
CCn1c(C(=O)c2cc(C)cc(C#N)c2)c(C(C)C)c(=O)[nH]c1=O,human,150 mg,"multiple doses, once daily, steady state, healthy volunteers",AUC,8250 ng·h/mL

# Repeated from above:
Compound,species,dose,notes,endpoint,result
O=C(O)COC[C@H]1CC[C@H](COC(=O)N(c2ccccc2)c2ccc(Cl)cc2)CC1,human,20 µg,"multiple doses, twice daily, steady state",AUC,14.3 ng·h/mL
